# Experimental data collected from several papers.
# Parts stem from different laboratories: compare values within a part only. Substitutions count along the parent as printed.

# Study 1 — method: protein-binding microarray; molecule type: hairpin DNA; medium: in vitro; tested at: not given; reference: not given; reading: higher = stronger binding
# Target: Runt-related transcription factor 3, Runt domain (RUNX3, Homo sapiens, UniProt Q13761, residues 53-186)
# Sequence of UniProt Q13761 (53-186, looked up): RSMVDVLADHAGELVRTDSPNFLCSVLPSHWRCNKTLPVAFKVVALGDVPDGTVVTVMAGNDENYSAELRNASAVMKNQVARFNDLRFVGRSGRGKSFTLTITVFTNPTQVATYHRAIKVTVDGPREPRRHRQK
# Notes: whole hairpin DNA, median over replicate spots
Oligonucleotide,median fluorescence [a.u.]
GAGGCCTGTTGCGGTCGGCCTCCTGGCCGACCGCAACAGGCCTCACACTC,9190
CTCAGCGCTGTGGGCTGGACTCCTGTCCAGCCCACAGCGCTGAGACACTC (5mC at 6),4840
CTCAGTTCTGTGGGCTGGACTCCTGTCCAGCCCACAGAACTGAGACACTC (5mC at 8),4010
GAGGCCTGTTGTGGTTGGCCTCCTGGCCAACCACAACAGGCCTCACACTC (5mC at 37),5090
GAGGCCTGTTGTGGTGGGCCTCCTGGCCCACCACAACAGGCCTCACACTC,5070
GAGGCCCAGCCGCAACAGCCTCCTGGCTGTTGCGGCTGGGCCTCACACTC,6060

# Study 2 — method: competition protein-binding microarray; molecule type: double-stranded DNA, one strand shown; medium: in vitro; tested at: 2 µM; with: Pho4 competitor, 0.05 µM; reading: higher = stronger binding; shared flanks, not repeated: … GTCTTGATTCGCTTGACGCTGCTG
# Target: Centromere-binding protein 1, full length, His-tagged (CBF1, Saccharomyces cerevisiae, UniProt P17106, residues 1-351)
# Sequence of UniProt P17106 (whole entry, looked up): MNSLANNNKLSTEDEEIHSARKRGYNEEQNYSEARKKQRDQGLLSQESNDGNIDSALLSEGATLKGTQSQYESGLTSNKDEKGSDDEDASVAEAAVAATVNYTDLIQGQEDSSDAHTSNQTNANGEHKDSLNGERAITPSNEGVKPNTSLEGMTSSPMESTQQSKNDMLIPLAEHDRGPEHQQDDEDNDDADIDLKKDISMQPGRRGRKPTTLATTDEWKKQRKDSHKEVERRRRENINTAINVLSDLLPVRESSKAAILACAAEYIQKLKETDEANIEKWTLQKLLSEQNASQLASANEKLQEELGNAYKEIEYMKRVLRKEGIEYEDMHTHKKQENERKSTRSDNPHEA
# Notes: whole 60-bp probe, lowest competitor level
Oligonucleotide,fluorescence intensity
AAGGGCAAAAAAGCTCACATGACAAGCTTGTTTTGG,618 a.u.
GCCCGCTCCCGCCGGCTCGTGCCAGCAAATCAGACA,83.9 a.u.
TGCGCAACAACTTGTCACTGCACTTTATGTCTAGAA,71.3 a.u.
AAAGCGGTAATTTGCCTGGTGGGTGCAGATATCTAT,67.4 a.u.
CTAACGAAGGTTTGGATCGTGGGTGACAAGCCAAGT,73.9 a.u.
GGTTGTGGAGCATTCAGCGTGATGGCAAAAGGTGTT,128 a.u.
GATGCCGATAATTTTCACATGGATGAGTCGCAGTGT,102 a.u.
GGTACTCGCTGTTTGCACGTGGCAAAGACCCCATTT,1200 a.u.
AAATTACTAAGTTTTCACGTGCAGTACCCCGTATGA,831 a.u.
CAATCTTATCATTGCCACGTGCAAAAGCAACATCTT,1450 a.u.
TCCCATGCAAACAAGCATGTGATATCATTGCCAAGT,737 a.u.

# Study 3 — method: RNA Bind-n-Seq; molecule type: RNA; medium: in vitro; tested at: not given; reference: input RNA pool; reading: higher = stronger binding
# Target: RING finger protein unkempt homolog, zinc fingers 1-6, GST-SBP tag (UNK, Homo sapiens, UniProt Q9C0B0, residues 30-357)
# Sequence of UniProt Q9C0B0 (30-357, looked up): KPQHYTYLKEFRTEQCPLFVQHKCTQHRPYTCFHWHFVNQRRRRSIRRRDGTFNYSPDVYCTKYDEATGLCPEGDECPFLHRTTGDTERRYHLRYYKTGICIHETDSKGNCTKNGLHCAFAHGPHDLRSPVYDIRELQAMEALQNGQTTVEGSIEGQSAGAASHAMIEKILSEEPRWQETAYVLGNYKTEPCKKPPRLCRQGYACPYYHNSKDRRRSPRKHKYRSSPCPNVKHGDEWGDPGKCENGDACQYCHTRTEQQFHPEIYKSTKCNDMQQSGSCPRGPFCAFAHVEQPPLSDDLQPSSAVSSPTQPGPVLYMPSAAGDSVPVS
# Notes: RNA with constant flanks, human and mouse sites, ends assumed
# Shared flanks, not repeated: GGGAGUUCUACAGUCCGACGAUC … CAACAGAGGAUUGAGCAUCA
Oligonucleotide,bound/input enrichment
AUUGAACCUGUAUUUCCGGAGAACACAGAAAACUCUGAAAAAAUAUCCCUUCAGCUUCAUUUAGCUCUGACUUCAAAUUCAUCUUGGGUUCAGUGUCCCAGCCAUUUGGAACUCAUGAAU,0.196 ratio
UCUAAAAGGAAAAAAAAGUAGUGUAUUUUAUAUUUCCAUAUGCUAAUGACAUGUCUGUAAUUAGUCUUCAGUGUUCCAUAAGAAGAGAGUGAUGGUACAAGUAUCCCUAAGUAUCACUUU,1.24 ratio
CUUUCUGUCCCCUCCUAUACAGUUUCCGUUUCUUUUUACACUUGCUUGCCCAGCCGUCUGUAGUACACCAGAUUCAGGUGUUUGCGCUGUGUAGAAUUUGUGUGCACAGAUACGUGCUUG,0.386 ratio
GGAGCUGAUGCUGAUCUAAUUAUGCUUGGUCUUGCUACACAUGAACCUAACUUCACCAUAAUCAGAGAAGAAUUCAAACCAAAUAAACCUAAACCAUGUGCUCUUUGUAAUCAGUUUGGA,0.25 ratio
AUUAAAACAACAAACGAAACCUAGUGAAGCAUCUUUUUAAAAGGCUGCCAGCUUAAUGAAUUUAGAUGUACUUUAAGAGAGAAAGACUGGUUAUUUCUCCUUUGUGUAAGUGAUAAACAA,0.504 ratio

# Study 4 — target: CCNE2, cyclin fold, Cln2 fusion (human); method: yeast growth competition, sequencing; medium: yeast; notes: weak parent motif; reference: not given; reading: higher = stronger binding
# Starting sequence: MASTL docking peptide (human); PMIAKNLMCELDE
Change,normalised enrichment score
PMIAKNLMCNLDE [E10N],0.171
PMIAKNLMCELGE [D12G],0.0438
PMILKNLMCELDE [A4L],-0.0468
PMIAKSLMCELDE [N6S],-0.106
PMIAKNLSCELDE [M8S],-0.234
PMIAKMLMCELDE [N6M],-0.0844
PMIAKNLICELDE [M8I],-0.129
PMSAKNLMCELDE [I3S],-0.483
PMYAKNLMCELDE [I3Y],0.446
PMIFKNLMCELDE [A4F],0.102
PMIAKILMCELDE [N6I],0.133

# For quick reference, copied from above (study 2):
Oligonucleotide,fluorescence intensity
AAAGCGGTAATTTGCCTGGTGGGTGCAGATATCTAT,67.4 a.u.
CTAACGAAGGTTTGGATCGTGGGTGACAAGCCAAGT,73.9 a.u.
